# Results pooled from the literature.
# Numbered parts are unrelated; each lists some results of a single study. Positions count from the first letter of the parent shown.

# Study 1 — target: ATF5, bZIP domain (human); technique: DHFR protein complementation; matrix: yeast; baseline: wild-type JUN-FOS pair; direction: higher = stronger binding
# Setting: single substitutions, most at no-binding floor
# Parent: JUN, bZIP domain (human); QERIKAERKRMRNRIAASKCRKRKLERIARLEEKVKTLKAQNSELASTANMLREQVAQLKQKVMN; partner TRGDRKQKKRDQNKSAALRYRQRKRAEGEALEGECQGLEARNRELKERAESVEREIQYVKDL
Change,binding fitness [natural log]
S43E,-1.51
K39Y,-1.58
K39Q,-1.38
M51C,-0.927
Q55S,-1.46
V56M,-1.38
R53C,-1.69
S47W,-1.44
A40D,-1.55
L52H,-1.44
L45G,-1.47
I28G,-1.42
V35W,-1.49
Q41F,-1.41

# Study 2 — target: UBE2E1 UBC core domain (UniProt P51965); technique: yeast two-hybrid; matrix: yeast; setting: mostly zero background; baseline: not given; direction: higher = stronger interaction
# UniProt P51965, sequence (whole entry, looked up): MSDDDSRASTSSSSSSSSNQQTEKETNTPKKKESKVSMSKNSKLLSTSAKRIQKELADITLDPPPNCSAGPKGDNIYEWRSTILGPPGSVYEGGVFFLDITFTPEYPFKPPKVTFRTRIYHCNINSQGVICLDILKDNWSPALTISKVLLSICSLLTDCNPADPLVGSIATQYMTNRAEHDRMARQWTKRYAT
# B1: MID1 RING domain (UniProt O15344); chain METLESELTCPICLELFEDPLLLPCAHSLCFNCAHRILVSHCATNESVESITAFQCPTCRHVITLSQRGL
# B2: TRIM8 RING domain (UniProt Q9BZR9); chain WKNCFEEELICPICLHVFVEPVQLPCKHNFCRGCIGEAWAKDSGLVRCPECNQAYNQKPGLE
# B3: UHRF2 RING domain (UniProt Q96PU4); chain CGGDPEKKCHSCSCRVCGGKHEPNMQLLCDECNVAYHIYCLNPPLDKVPEEEYWYCPSCKTDSSEVVKAGER
# B4: ZNF598 RING domain (UniProt Q86UK7); chain AAAPERGGGSCVLCCGDLEATALGRCDHPVCYRCSTKMRVLCEQRYCAVCREELRQVVFGK
Sequence,lacZ reporter activity
FASPPDSNFVCSVCHGVLKRPARLPCSHIFCKKCILRWLARQKTCPCCRKEVKRKKVVH (RNF151 RING domain (UniProt Q2KHN1)),0
B1 (MID1 RING domain),0
RLTMMWEEVTCPICLDPFVEPVSIECGHSFCQECISQVGKGGGSVCPVCRQRFLLKNLRP (TRIM21 RING domain (UniProt P19474)),0
B2 (TRIM8 RING domain),0
B3 (UHRF2 RING domain),0
YWAMDSTFELCKICAESNKDVKIEPCGHLLCSCCLAAWQHSDSQTCPFCRCEIKGWEAVS (CBLC RING domain (UniProt Q9ULV8)),0
QLQDIKEQTMCPVCLDRLKNMIFLCGHGTCQLCGDRMSECPICRKAIERRILLY (MIB1 RING domain (UniProt Q86YT6)),0
QLRRLQEERTCKVCMDKEVSVVFIPCGHLVVCQECAPSLRKCPICRGIIKGTVRTF (BIRC2 RING domain (UniProt Q13490)),0
B4 (ZNF598 RING domain),0
DAIPSLSECQCGICMEILVEPVTLPCNHTLCKPCFQSTVEKASLCCPFCRRRVSSWTRYH (RNF168 RING domain (UniProt Q8IYW5)),0
PEELQAMDNVCIICREEMVTGAKRLPCNHIFHTSCLRSWFQRQQTCPTCRMDVLRASLPA (SYVN1 RING domain (UniProt Q86TM6)),0
QLRRLQEERTCKVCMDKEVSIVFIPCGHLVVCKDCAPSLRKCPICRSTIKGTVRTF (BIRC3 RING domain (UniProt Q13489)),0

# Study 3 — technique: protein-binding microarray; form: double-stranded DNA, one strand shown; matrix: in vitro; concentration: 250 nM; setting: 60-bp whole probe; together with: salmon DNA 0.4 mg/ml; baseline: random background probes; direction: higher = stronger binding; shared flanks, not repeated: GCCTAGCAC … GTCTTGATTCGCTTGACGCTGCTG
# Target: Interferon regulatory factor 5, full length, phosphomimetic (IRF5, Homo sapiens, UniProt Q13568-2, residues 1-514, K96S/S451D/S453D/S456D/S462D)
Oligonucleotide,log fluorescence [z-score]
GACGGTTTCCTTTGCCTGACGTGCTAG,0.821
GACGGTCTCTTTATCCTGACGTGCTAG,0.0588
GACGGGTTCGGGTATCGGGACGTGCTA,0.344
GTTGCTCTCTCACCACCTTCGTGCTAG,0.227
CGGCCTCTAGGTTTTCTGAAGTGCTAG,-0.458
GACGGACTGGGTCCCGGGACGTGCTAG,-0.821
GGCGGTATCGACTTTCGGGACGTGCTA,6.26
TTAGGTATCGGGGCTGGGTTAGTGCTA,1.33
GACGATATCACTTTCGAGACGTGCTAG,7.81
TTAGGTTTGCTACTGCTTTAGTGCTAG,0.0393
TCTGTTTCCTCTTTCTTTGCGTGCTAG,1.84
GTGATCCGTCCGCCTCAGCCGTGCTAG,-0.552
TAAGATTCCAGTTTCGATTAGTGCTAG,9.83
GACGATTTCAGTTTCGAGTCGTGCTAG,7.92
GACGGTATCGGTAACGGGACGTGCTAG,4.49
GTGTGTTTGAGTCTTCTCCTGTGCTAG,0.149

# Study 4 — target: CCNA2, cyclin fold, Cln2 fusion (human); technique: yeast growth competition, sequencing; matrix: yeast; setting: strong parent motif; baseline: not given; direction: higher = stronger binding
# Parent: MICAL3 docking peptide (human); LQLRRQLSFSEDS
Change,normalised enrichment score
LQRRRQLSFSEDS [L3R],3.47
LQLRRQISFSEDS [L7I],1.35
LQLRRQLSKSEDS [F9K],0.437
LWLRRQLSFSEDS [Q2W],2.13
LVLRRQLSFSEDS [Q2V],3.29
LQLRRQLSFMEDS [S10M],2.18
LQLRRQWSFSEDS [L7W],-0.033
LQLRRQFSFSEDS [L7F],-0.215
LQLRIQLSFSEDS [R5I],0.558
LQLRRQLSFSEKS [D12K],3.63
LQLRRQLSFKEDS [S10K],2.23
LQLCRQLSFSEDS [R4C],2.13
LQLRRQLLFSEDS [S8L],3.55
LQLRRQESFSEDS [L7E],0.0897
LQLRCQLSFSEDS [R5C],0.537
LQLRRQLSNSEDS [F9N],0.0663
LSLRRQLSFSEDS [Q2S],3.89
LQLKRQLSFSEDS [R4K],1.77
LQLRRQLSGSEDS [F9G],0.0624
LQLRRQLSFSEVS [D12V],3.94

# Study 5 — technique: DHFR PCA, deep sequencing; matrix: yeast; together with: (+)-ABA 0.032 µM; baseline: wild-type fitted maximum; direction: higher = stronger binding
# Target: ABI1, truncated, D143A, DHFR fusion (Arabidopsis thaliana)
# Setting: methotrexate growth selection, single substitutions
# Parent: PYL1, truncated, DHFR fusion (Arabidopsis thaliana); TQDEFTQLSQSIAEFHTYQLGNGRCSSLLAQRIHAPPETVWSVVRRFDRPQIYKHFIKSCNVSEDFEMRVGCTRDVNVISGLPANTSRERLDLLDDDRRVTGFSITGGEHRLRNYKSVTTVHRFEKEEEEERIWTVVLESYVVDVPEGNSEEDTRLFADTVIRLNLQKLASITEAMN
Change,relative binding score [%]
E131S,48.9
F5K,-0.93
Q10K,40
R90I,-2.39
L94Y,5.41
H16A,8.24
R90M,1.51
N165D,12.5
R132I,22.9
R99P,29
H110V,15.9
R163V,4.92
N22Q,42
N77P,-2.59
I79M,5.96
Q167L,16.5

# Study 6 — technique: aptamer microarray, sandwich; form: DNA with 2'F-ANA; matrix: in vitro; concentration: 200 nM; together with: Cy3 exosite-II aptamer, 400 nM; direction: higher = stronger binding; oligonucleotide: GGTTGGTGTGGTTGG
# Target: Prothrombin, mature alpha-thrombin (F2, Homo sapiens, UniProt P00734)
# Setting: whole 15-mer aptamer, many near background
Modification,mean fluorescence intensity
2'F-ANA at 1 5 8 9 11 12 13 15,73.7 a.u.
2'F-ANA at 2 4 5 6 7 8 10 13 15,116 a.u.
2'F-ANA at 2 3 4 10 12 14,189 a.u.
2'F-ANA at 3 8 9 10 12 15,657 a.u.
2'F-ANA at 2 3 4 5 6 7 9 12 14 15,91.1 a.u.
2'F-ANA at 1 2 4 5 9 11 12 13 15,60 a.u.
2'F-ANA at 1 2 3 6 7 9 10 13 15,61.7 a.u.
2'F-ANA at 2 3 6 7 8 14,514 a.u.
2'F-ANA at 1 4 5 7 10 14,40.6 a.u.
2'F-ANA at 1 2 3 5 6 7 8 9 13,53.4 a.u.
2'F-ANA at 1 5 7 10 11 12 15,48 a.u.
2'F-ANA at 1 3 4 5 9 13 15,59.7 a.u.
2'F-ANA at 3 7 8 12 13 14,762 a.u.
2'F-ANA at 3 8 10 11 12,625 a.u.
2'F-ANA at 2 4 5 6 8 9 10 11 12 13 14,48.5 a.u.
2'F-ANA at 1 6 10 12 13 14 15,53.7 a.u.
2'F-ANA at 1 3 5 7 8 10 13,48.7 a.u.
2'F-ANA at 2 3 4 5 6 7 8 9 10 11 14 15,49.6 a.u.
2'F-ANA at 3 4 5 6 7 8 9 10 11 12 14 15,50.1 a.u.
2'F-ANA at 2 3 11 14,437 a.u.
2'F-ANA at 1 3 4 6 9 11 12 14 15,116 a.u.
2'F-ANA at 1 4 7 9 10 11 13 15,51.9 a.u.
2'F-ANA at 2 4 10 12 14,65.3 a.u.
2'F-ANA at 1 2 6 7 10 11 12 14,43.5 a.u.
2'F-ANA at 6 9 10 13 14 15,101 a.u.

# Some of these lines once more (study 5):
Change,relative binding score [%]
H16A,8.24
R90M,1.51
N165D,12.5
R132I,22.9
R99P,29
H110V,15.9
R163V,4.92
N22Q,42
N77P,-2.59
I79M,5.96
Q167L,16.5
